Measured values gathered from unrelated publications.
A part holds a random share of what one study measured.

Sample 1 — method: protein-binding microarray; molecule type: double-stranded DNA, one strand shown; sample: in vitro; concentration: 2540 nM top; notes: 60-bp whole probe; added: salmon DNA 0.4 mg/ml; relative to: random background probes; reading: higher = stronger binding; constant ends, left off below: GCCTAGCAC … GTCTTGATTCGCTTGACGCTGCTG
Target: Interferon regulatory factor 3, full length, phosphomimetic (IRF3, Homo sapiens, UniProt Q14653, residues 1-427, S386D/S396D/S398D/S402D/T404D/S405D)
Chain of UniProt Q14653 (whole entry, unmodified, looked up): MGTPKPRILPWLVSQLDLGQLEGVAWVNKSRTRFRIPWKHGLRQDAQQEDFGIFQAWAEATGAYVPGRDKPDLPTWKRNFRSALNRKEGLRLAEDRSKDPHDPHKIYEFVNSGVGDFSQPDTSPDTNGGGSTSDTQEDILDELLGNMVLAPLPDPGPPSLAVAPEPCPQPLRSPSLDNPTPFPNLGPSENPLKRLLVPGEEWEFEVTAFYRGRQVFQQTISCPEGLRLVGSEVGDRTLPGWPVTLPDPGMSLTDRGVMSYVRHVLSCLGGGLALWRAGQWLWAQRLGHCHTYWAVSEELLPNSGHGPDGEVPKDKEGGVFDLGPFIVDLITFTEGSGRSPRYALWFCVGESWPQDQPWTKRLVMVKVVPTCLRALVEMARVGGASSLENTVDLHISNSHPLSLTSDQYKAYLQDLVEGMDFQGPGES
Oligonucleotide	fitted relative affinity
TCAAGCAAAAATGATTGACTGTGCTAG	-0.736 z-score
CACGATCTCAGACTGGAGACGTGCTAG	0.225 z-score
GACGGGCTGCTTATCCTGACGTGCTAG	-0.744 z-score
TGAGATATCGGGTTTCGATTAGTGCTA	1.88 z-score
GACGGCTCCGGTTTCGGGACGTGCTAG	2.38 z-score

Sample 2 — method: aptamer microarray, sandwich; molecule type: DNA with 2'F-ANA; sample: in vitro; concentration: 200 nM; added: Cy3 exosite-II aptamer, 400 nM; reading: higher = stronger binding
Target: Prothrombin, mature alpha-thrombin (F2, Homo sapiens, UniProt P00734)
Notes: whole 15-mer aptamer, many near background
Oligonucleotide	mean fluorescence intensity
GGTTGGTGTGGTTGG (2'F-ANA at 2 4 6 7 8 9 10 11 13 15)	68.4 a.u.
GGTTGGTGTGGTTGG (2'F-ANA at 1 2 4 6 9 12)	270 a.u.
GGTTGGTGTGGTTGG (2'F-ANA at 1 3 4 6 7 9 14)	62 a.u.
GGTTGGTGTGGTTGG (2'F-ANA at 2 6 11 12 13 14)	137 a.u.

Sample 3 — method: protein binding microarray; molecule type: double-stranded DNA, one strand shown; sample: in vitro; concentration: not given; relative to: not given; reading: higher = stronger binding
Target: Histone acetyltransferase KAT6A, both winged helices, GST fusion (KAT6A, Homo sapiens, UniProt Q92794, residues 1-181)
Notes: 8-mer, flanks averaged, mean of 2 arrays, mostly near background
Target sequence (chain): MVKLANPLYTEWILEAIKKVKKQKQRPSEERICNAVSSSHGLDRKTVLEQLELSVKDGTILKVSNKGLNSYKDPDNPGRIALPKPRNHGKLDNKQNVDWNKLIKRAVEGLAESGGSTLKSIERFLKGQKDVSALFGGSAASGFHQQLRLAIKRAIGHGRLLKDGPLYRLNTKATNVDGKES
Oligonucleotide	E-score
AGACGTCG	0.0745
CTGCAGAC	-0.0522
ATTCACTA	-0.169
AGTCAAAC	-0.0255
ACAAACAT	-0.111
ACGGAGCC	0.228

Single results of other studies
Molecule	target	assay	system	conditions	how to read	measurement	result
PhoQ, residues 284 288 289 292 302 303 SIHMAM	PhoP, residues 12 14 15 18 19 LHTVM (Escherichia coli, UniProt P23836)	Sort-seq, measured: YFP reporter	E. coli	PhoQ-PhoP variant library, added: 10 µM Mg2+	relative to: high Mg2+ state, higher = stronger signaling	fold induction	7.97

Excerpt of the above (sample 2):
Oligonucleotide	mean fluorescence intensity
GGTTGGTGTGGTTGG (2'F-ANA at 1 2 4 6 9 12)	270 a.u.
GGTTGGTGTGGTTGG (2'F-ANA at 1 3 4 6 7 9 14)	62 a.u.
GGTTGGTGTGGTTGG (2'F-ANA at 2 6 11 12 13 14)	137 a.u.
